{"data": "Experimental data gathered from unrelated publications", "PKG T618Q": "cGMP-dependent protein kinase (PKG, Plasmodium falciparum, UniProt Q8I719, T618Q)", "OPRL1": "Nociceptin receptor (OPRL1, Homo sapiens, UniProt P41146)", "Orco": "Orco (Drosophila melanogaster, UniProt Q9VNB5)", "note": "Lines come from different studies, so protocols differ. ± gives the spread as reported."}
{"SMILES": "CCN(CC)Cc1onc(-c2cccc(Cl)c2)c1-c1ccnc(N[C@@H]2CCN(C(=O)c3ccn(C)n3)C2)n1", "tested on": "PKG T618Q", "test": "kinase activity, inhibitor, IMAP", "setting": "10 µM, gatekeeper mutant", "endpoint": "inhibition", "result": "36 ± 5%"}
{"SMILES": "CC#Cc1ccc2c(=O)[nH]nc(Cc3ccc(F)c(C(=O)N4CCN(c5ccc(C#N)cn5)CC4)c3)c2c1", "tested on": "Poly [ADP-ribose] polymerase 2 (PARP2, Homo sapiens, UniProt Q9UGN5)", "test": "PASTA", "scale": "baseline: IC50 PARP2 over IC50 PARP7", "endpoint": "selectivity ratio", "result": "~75 fold"}
{"SMILES": "CC(=O)Oc1ccc(CON2C(=O)CCC2=O)cc1", "tested on": "Thioredoxin reductase 1, cytoplasmic (TXNRD1, Homo sapiens, UniProt Q16881)", "test": "enzyme activity, inhibitor, DTNB reduction, two-step kinetics", "endpoint": "kinact", "result": "0.00078 ± 9e-05 s⁻¹"}
{"SMILES": "O=C1Cc2ccccc2N1C1CCN([C@@H]2CC[C@H]3CCCc4cccc2c43)CC1", "tested on": "OPRL1", "test": "β-arrestin recruitment, BRET", "test system": "HEK293", "setting": "concentration not given, unit not given, together with: β-arrestin 2", "scale": "baseline: N/OFQ maximal effect", "endpoint": "intrinsic activity", "result": "0.87 ± 0.08"}
{"SMILES": "CCCN(C)Cc1onc(-c2cccc(Cl)c2)c1-c1ccnc(N[C@@H]2CCN(C(=O)c3ccn(C)n3)C2)n1", "tested on": "cGMP-dependent protein kinase (PKG, Plasmodium falciparum, UniProt Q8I719)", "test": "kinase activity, inhibitor, IMAP", "setting": "10 µM", "endpoint": "inhibition", "result": "96 ± 1.4%"}
{"SMILES": "CC[C@H](C)[C@@H]1NC(=O)[C@H](CCCNC(=N)N)NC(=O)[C@@H](N)CSSC[C@@H]2NC(=O)[C@@H]3CSSC[C@@H](C(=O)N[C@H](C(=O)O)C(C)C)NC(=O)[C@H](CCCCN)NC(=O)[C@H](CC(N)=O)NC(=O)[C@H](Cc4ccccc4)NC(=O)[C@H](CCCNC(=N)N)NC(=O)[C@H](CC(N)=O)NC(=O)[C@H](CSSC[C@H](NC(=O)[C@H](CCCCN)NC(=O)[C@H](CCC(N)=O)NC(=O)[C@H](CC(N)=O)NC(=O)[C@@H]4C[C@@H](O)CN4C1=O)C(=O)N[C@@H](Cc1ccccc1)C(=O)N[C@@H](CCC(N)=O)C(=O)N[C@@H](Cc1c[nH]cn1)C(=O)N[C@@H](CC(C)C)C(=O)N[C@@H](CC(=O)O)C(=O)N[C@@H](CC(=O)O)C(=O)N3)NC(=O)[C@H](CCCCN)NC(=O)[C@H](CCCNC(=N)N)NC(=O)[C@H](CO)NC2=O", "tested on": "Sh (Drosophila melanogaster, UniProt P08510, del6-46)", "test": "potassium current, patch clamp", "setting": "500 nM, together with: 1 mM TEA", "endpoint": "inhibition difference, pulse vs chronic", "result": "< 3%"}
{"SMILES": "CC[C@H](C)[C@H](NC(=O)[C@H](C)NC(=O)[C@H](CCC(=O)O)NC(=O)[C@H](CCC(=O)O)NC(=O)[C@H](CC(C)C)NC(=O)[C@H](CCCCN)NC(=O)[C@H](CCCCN)NC(=O)[C@H](CCSC)NC(=O)[C@H](CCC(=O)O)NC(=O)[C@H](Cc1ccc(O)cc1)NC(=O)[C@H](CCC(=O)O)NC(=O)[C@H](CC(C)C)NC(=O)[C@H](CC(=O)O)NC(=O)[C@H](CC(C)C)NC(=O)[C@H](Cc1ccccc1)NC(=O)[C@H](Cc1ccccc1)NC(=O)[C@@H](NC(=O)[C@H](CC(N)=O)NC(=O)[C@@H](NC(=O)[C@H](CCC(N)=O)NC(=O)[C@H](CC(=O)O)NC(=O)[C@H](CC(C)C)NC(=O)[C@@H](N)CO)[C@@H](C)CC)C(C)C)C(=O)N[C@@H](CCCCN)C(=O)N[C@@H](CCCCN)C(=O)N[C@@H](CC(C)C)C(=O)N[C@@H](CCC(=O)O)C(=O)N[C@@H](CCC(=O)O)C(=O)N[C@@H](CO)C(=O)N[C@@H](Cc1ccc(O)cc1)C(=O)N[C@H](C(=O)N[C@@H](CC(=O)O)C(=O)N[C@@H](CC(C)C)C(=O)N[C@@H](CCCCN)C(=O)N[C@@H](CCC(=O)O)C(=O)N[C@@H](CC(C)C)C(=O)O)[C@@H](C)CC", "tested on": "SARS-CoV-2 Delta pseudovirus", "test": "pseudovirus infection, inhibitor, luciferase", "test system": "Caco-2", "setting": "24 h", "endpoint": "IC50", "result": "401 nM"}
{"SMILES": "CCOP(=O)(OCC)ON1C(=O)c2cccc3cccc(c23)C1=O", "tested on": "carboxylesterase (rat)", "test": "enzyme activity, inhibitor", "test system": "rat, postnatal day 1, rat liver homogenate", "setting": "together with: p-nitrophenyl valerate", "endpoint": "IC50", "result": "5 nM"}
{"SMILES": "CS(=O)(=O)Cc1onc(-c2cccc(Cl)c2)c1-c1ccnc(N[C@@H]2CCN(C(=O)c3nccs3)C2)n1", "tested on": "PKG T618Q", "test": "kinase activity, inhibitor, IMAP", "setting": "10 µM, gatekeeper mutant", "endpoint": "inhibition", "result": "33 ± 9%"}
{"SMILES": "C=CCn1c(SCC(=O)N2CCc3cc(CC)ccc32)nnc1-c1ccncc1", "tested on": "Orco", "test": "calcium mobilization, agonist", "test system": "HEK293 expressing Drosophila Orco", "scale": "baseline: VUAA1", "endpoint": "efficacy", "result": "76%"}
{"SMILES": "Cc1ccc(S(=O)(=O)Nc2cccc(C(=O)NC3CCN(c4ncnc5[nH]cnc45)CC3)c2)cc1", "tested on": "Replicase polyprotein 1ab, nsp14 ExoN with nsp10 (rep, Severe acute respiratory syndrome coronavirus 2, UniProt P0DTD1)", "test": "ExoN activity", "setting": "50 µM", "endpoint": "inhibition", "result": "-0.121%"}
{"SMILES": "CC(C)[C@H]1CC[C@@H](N2CCC3(CC2)C(=O)NCN3c2ccccc2)CC1", "tested on": "OPRL1", "test": "G protein interaction, BRET", "test system": "HEK293 membranes", "setting": "concentration not given, unit not given", "scale": "baseline: compound Emax over N/OFQ Emax", "endpoint": "intrinsic activity", "result": 0.93}
{"SMILES": "CC[C@H](C)[C@H](NC(=O)[C@H](C)NC(=O)[C@H](CCC(=O)O)NC(=O)[C@H](CCC(=O)O)NC(=O)[C@H](CC(C)C)NC(=O)[C@H](CCCCN)NC(=O)[C@H](CCCCN)NC(=O)[C@H](CCSC)NC(=O)[C@H](CCC(=O)O)NC(=O)[C@H](Cc1ccc(O)cc1)NC(=O)[C@H](CCC(=O)O)NC(=O)[C@H](CC(C)C)NC(=O)[C@H](CC(=O)O)NC(=O)[C@H](CC(C)C)NC(=O)[C@H](Cc1ccccc1)NC(=O)[C@H](Cc1ccc(O)cc1)NC(=O)[C@@H](NC(=O)[C@H](CC(N)=O)NC(=O)[C@@H](NC(=O)[C@H](CCC(N)=O)NC(=O)[C@H](CC(=O)O)NC(=O)[C@H](CC(C)C)NC(=O)[C@@H](N)CO)[C@@H](C)CC)C(C)C)C(=O)N[C@@H](CCCCN)C(=O)N[C@@H](CCCCN)C(=O)N[C@@H](CC(C)C)C(=O)N[C@@H](CCC(=O)O)C(=O)N[C@@H](CCC(=O)O)C(=O)N[C@H](C(=O)N[C@@H](Cc1ccc(O)cc1)C(=O)N[C@H](C(=O)N[C@@H](CC(=O)O)C(=O)N[C@@H](CC(C)C)C(=O)N[C@@H](CCCCN)C(=O)N[C@@H](CCC(=O)O)C(=O)N[C@@H](CC(C)C)C(=O)O)[C@@H](C)CC)[C@@H](C)O", "tested on": "SARS-CoV-2 Gamma pseudovirus", "test": "pseudovirus infection, inhibitor, luciferase", "test system": "Caco-2", "setting": "24 h, dual mutations", "endpoint": "IC50", "result": "1480 nM"}
{"SMILES": "CNC(=O)CC1C(=O)N(C2CCN([C@H]3CC[C@@H](C(C)C)CC3)CC2)c2ccccc21 (stereo partly drawn)", "tested on": "OPRL1", "test": "calcium mobilization", "test system": "CHO with Gαqi5", "setting": "concentration not given, unit not given", "scale": "baseline: compound over N/OFQ Emax", "endpoint": "intrinsic activity", "result": 0.96}
{"SMILES": "CCc1ccc2c(c1)CCN2C(=O)CSc1nnc(-c2ccncc2)n1CC", "tested on": "Orco", "test": "calcium mobilization, agonist", "test system": "HEK293 expressing Drosophila Orco", "scale": "baseline: VUAA1", "endpoint": "efficacy", "result": "130%"}
{"note": "For quick reference, copied from above:"}
{"SMILES": "CC[C@H](C)[C@H](NC(=O)[C@H](C)NC(=O)[C@H](CCC(=O)O)NC(=O)[C@H](CCC(=O)O)NC(=O)[C@H](CC(C)C)NC(=O)[C@H](CCCCN)NC(=O)[C@H](CCCCN)NC(=O)[C@H](CCSC)NC(=O)[C@H](CCC(=O)O)NC(=O)[C@H](Cc1ccc(O)cc1)NC(=O)[C@H](CCC(=O)O)NC(=O)[C@H](CC(C)C)NC(=O)[C@H](CC(=O)O)NC(=O)[C@H](CC(C)C)NC(=O)[C@H](Cc1ccccc1)NC(=O)[C@H](Cc1ccc(O)cc1)NC(=O)[C@@H](NC(=O)[C@H](CC(N)=O)NC(=O)[C@@H](NC(=O)[C@H](CCC(N)=O)NC(=O)[C@H](CC(=O)O)NC(=O)[C@H](CC(C)C)NC(=O)[C@@H](N)CO)[C@@H](C)CC)C(C)C)C(=O)N[C@@H](CCCCN)C(=O)N[C@@H](CCCCN)C(=O)N[C@@H](CC(C)C)C(=O)N[C@@H](CCC(=O)O)C(=O)N[C@@H](CCC(=O)O)C(=O)N[C@H](C(=O)N[C@@H](Cc1ccc(O)cc1)C(=O)N[C@H](C(=O)N[C@@H](CC(=O)O)C(=O)N[C@@H](CC(C)C)C(=O)N[C@@H](CCCCN)C(=O)N[C@@H](CCC(=O)O)C(=O)N[C@@H](CC(C)C)C(=O)O)[C@@H](C)CC)[C@@H](C)O", "tested on": "SARS-CoV-2 Gamma pseudovirus", "test": "pseudovirus infection, inhibitor, luciferase", "test system": "Caco-2", "setting": "24 h, dual mutations", "endpoint": "IC50", "result": "1480 nM"}
{"SMILES": "CNC(=O)CC1C(=O)N(C2CCN([C@H]3CC[C@@H](C(C)C)CC3)CC2)c2ccccc21 (stereo partly drawn)", "tested on": "OPRL1", "test": "calcium mobilization", "test system": "CHO with Gαqi5", "setting": "concentration not given, unit not given", "scale": "baseline: compound over N/OFQ Emax", "endpoint": "intrinsic activity", "result": 0.96}
